Assay results collected from several papers.
Parts stem from different laboratories: compare values within a part only. Several values in a cell are separate wells, animals, samples, runs or records. ± marks the error that the study gave. ≈ marks a conversion by molar mass, not a printed value.
Sequence of UniProt P35372 (whole entry, looked up): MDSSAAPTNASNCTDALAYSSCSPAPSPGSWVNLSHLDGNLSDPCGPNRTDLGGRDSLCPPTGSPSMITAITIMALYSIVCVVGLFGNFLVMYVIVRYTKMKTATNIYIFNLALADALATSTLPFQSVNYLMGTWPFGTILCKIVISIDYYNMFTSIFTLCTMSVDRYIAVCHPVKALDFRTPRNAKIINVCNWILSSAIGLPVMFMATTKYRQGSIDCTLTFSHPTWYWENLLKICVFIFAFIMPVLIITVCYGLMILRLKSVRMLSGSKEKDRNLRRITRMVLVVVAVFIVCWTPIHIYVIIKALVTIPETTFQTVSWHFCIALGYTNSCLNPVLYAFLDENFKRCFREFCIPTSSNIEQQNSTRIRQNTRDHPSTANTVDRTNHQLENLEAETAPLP
Sequence of UniProt Q695T7 (whole entry, looked up): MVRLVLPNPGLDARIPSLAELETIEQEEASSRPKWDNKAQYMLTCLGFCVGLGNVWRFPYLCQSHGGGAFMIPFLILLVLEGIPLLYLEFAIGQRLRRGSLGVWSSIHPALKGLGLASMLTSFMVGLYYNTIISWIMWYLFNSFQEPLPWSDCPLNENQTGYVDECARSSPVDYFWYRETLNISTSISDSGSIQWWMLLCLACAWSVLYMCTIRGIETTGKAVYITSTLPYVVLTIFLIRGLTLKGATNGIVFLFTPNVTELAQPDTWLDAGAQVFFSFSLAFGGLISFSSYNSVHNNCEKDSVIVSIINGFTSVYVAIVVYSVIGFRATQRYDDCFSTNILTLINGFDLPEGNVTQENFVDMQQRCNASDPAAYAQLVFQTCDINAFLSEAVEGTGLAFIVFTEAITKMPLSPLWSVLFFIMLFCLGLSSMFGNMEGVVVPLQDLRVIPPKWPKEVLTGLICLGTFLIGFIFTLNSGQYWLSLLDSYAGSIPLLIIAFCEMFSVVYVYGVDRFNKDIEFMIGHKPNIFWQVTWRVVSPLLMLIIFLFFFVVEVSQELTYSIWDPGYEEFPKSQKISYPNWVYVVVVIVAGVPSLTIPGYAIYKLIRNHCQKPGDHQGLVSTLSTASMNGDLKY
Sequence of UniProt P41143 (whole entry, looked up): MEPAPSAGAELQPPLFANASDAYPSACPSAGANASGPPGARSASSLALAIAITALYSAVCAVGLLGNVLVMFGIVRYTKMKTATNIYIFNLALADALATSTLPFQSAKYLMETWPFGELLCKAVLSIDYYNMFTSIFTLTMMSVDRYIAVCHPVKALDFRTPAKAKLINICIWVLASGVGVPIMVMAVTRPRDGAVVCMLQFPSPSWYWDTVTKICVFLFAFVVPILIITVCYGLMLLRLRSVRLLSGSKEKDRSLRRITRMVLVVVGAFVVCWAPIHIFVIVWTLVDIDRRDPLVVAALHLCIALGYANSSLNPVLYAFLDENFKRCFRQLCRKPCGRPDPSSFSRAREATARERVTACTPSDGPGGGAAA

Block 1
Compound: Cn1cc(-c2cccc(CN3CCC4(CC3)COc3c4ccc4c3CN([C@H]3CCC(=O)NC3=O)C4=O)c2)cn1
Mode: degrader
Ikzf2/Crbn I391V: Ikzf2/Crbn (Mus musculus, UniProt P81183+Q8C7D2, I391V)
Sequence of UniProt Q8C7D2 (whole entry, unmodified, looked up): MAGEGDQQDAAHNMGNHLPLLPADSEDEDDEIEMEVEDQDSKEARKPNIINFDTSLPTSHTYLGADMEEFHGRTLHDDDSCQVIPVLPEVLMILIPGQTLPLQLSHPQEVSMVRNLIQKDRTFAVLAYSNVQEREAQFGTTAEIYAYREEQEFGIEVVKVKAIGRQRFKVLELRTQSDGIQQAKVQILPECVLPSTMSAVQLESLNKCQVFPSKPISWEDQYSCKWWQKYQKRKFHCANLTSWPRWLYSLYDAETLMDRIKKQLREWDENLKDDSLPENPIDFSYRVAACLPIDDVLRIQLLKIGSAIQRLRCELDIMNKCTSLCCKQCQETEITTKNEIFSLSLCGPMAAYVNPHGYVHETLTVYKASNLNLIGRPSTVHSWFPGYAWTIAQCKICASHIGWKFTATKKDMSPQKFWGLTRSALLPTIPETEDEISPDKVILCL
Sequence of UniProt P81183 (whole entry, unmodified, looked up): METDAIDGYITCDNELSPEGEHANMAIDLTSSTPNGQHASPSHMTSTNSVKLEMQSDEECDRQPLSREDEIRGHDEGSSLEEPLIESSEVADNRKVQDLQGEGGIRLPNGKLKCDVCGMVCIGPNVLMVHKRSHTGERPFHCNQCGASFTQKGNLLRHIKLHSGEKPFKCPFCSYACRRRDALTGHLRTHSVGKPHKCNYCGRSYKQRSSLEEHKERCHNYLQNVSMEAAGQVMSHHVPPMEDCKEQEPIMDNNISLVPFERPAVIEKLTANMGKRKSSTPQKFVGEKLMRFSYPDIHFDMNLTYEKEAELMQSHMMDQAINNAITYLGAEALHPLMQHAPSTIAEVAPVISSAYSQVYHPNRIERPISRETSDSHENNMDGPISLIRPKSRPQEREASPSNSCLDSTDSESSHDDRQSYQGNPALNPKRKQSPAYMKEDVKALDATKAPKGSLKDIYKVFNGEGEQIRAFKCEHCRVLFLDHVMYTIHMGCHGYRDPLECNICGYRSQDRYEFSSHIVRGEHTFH
CRBN/Zinc finger protein Helios: CRBN/Zinc finger protein Helios (Homo sapiens, UniProt Q96SW2+Q9UKS7)
Sequence of UniProt Q9UKS7 (whole entry, looked up): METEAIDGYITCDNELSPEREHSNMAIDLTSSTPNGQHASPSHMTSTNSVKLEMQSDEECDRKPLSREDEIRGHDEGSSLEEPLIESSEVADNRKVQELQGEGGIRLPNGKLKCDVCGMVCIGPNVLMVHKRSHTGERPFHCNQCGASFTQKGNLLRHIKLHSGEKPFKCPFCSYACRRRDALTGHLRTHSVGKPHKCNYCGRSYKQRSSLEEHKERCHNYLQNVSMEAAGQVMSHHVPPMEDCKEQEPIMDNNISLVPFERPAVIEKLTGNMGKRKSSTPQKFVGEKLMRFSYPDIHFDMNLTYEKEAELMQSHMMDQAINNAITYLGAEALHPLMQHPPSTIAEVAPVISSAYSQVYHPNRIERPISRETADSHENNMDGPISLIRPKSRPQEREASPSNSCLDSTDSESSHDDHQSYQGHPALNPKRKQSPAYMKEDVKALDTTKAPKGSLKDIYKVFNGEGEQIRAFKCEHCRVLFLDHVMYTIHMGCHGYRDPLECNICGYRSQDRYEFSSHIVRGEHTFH
Sequence of UniProt Q96SW2 (whole entry, looked up): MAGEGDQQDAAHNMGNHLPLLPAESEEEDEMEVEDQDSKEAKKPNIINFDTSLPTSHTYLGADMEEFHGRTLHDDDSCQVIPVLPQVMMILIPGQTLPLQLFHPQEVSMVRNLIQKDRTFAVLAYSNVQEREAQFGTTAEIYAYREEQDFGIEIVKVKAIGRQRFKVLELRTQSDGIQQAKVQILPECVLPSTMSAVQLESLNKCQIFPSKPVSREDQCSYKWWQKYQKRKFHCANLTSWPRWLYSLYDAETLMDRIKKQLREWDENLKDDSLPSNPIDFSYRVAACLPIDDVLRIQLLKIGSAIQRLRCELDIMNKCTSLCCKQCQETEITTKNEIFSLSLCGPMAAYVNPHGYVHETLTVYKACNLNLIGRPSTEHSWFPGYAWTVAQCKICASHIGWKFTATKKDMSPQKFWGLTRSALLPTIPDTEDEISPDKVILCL
For Ikzf2/Crbn I391V; Crbn I391V mouse, spleen; 100 mg/kg, 24 h: protein remaining read 18% and 16% and 19% and 9%.
CRBN/Zinc finger protein Helios; HiBiT; HEK293; 0.01694 nM, 0.5 h — protein remaining: 93.2% and 93.1%.
CRBN/Zinc finger protein Helios; HiBiT; HEK293; 0.05081 nM — protein remaining: 97.3% and 92.7%.
The protein remaining was 86.3% and 77.7% (CRBN/Zinc finger protein Helios; HiBiT; HEK293; 0.4572 nM, 1 h).
The protein remaining was 23.5% and 26.2% (CRBN/Zinc finger protein Helios; HiBiT; HEK293; 4.115 nM).
It gave 85.1% and 82.6% for protein remaining (CRBN/Zinc finger protein Helios; HiBiT; HEK293; 4.115 nM, 0.5 h).
The protein remaining was 39% and 35% and 32% and 33% (Ikzf2/Crbn I391V; Crbn I391V mouse, spleen; 10 mg/kg, 24 h).
For CRBN/Zinc finger protein Helios; HiBiT; HEK293; 0.1524 nM, 6 h: protein remaining read 74.7% and 72%.
For CRBN/Zinc finger protein Helios; HiBiT; HEK293; 0.1524 nM: protein remaining read 93.6% and 91.5%.
For CRBN/Zinc finger protein Helios; HiBiT; HEK293; 1.372 nM, 3 h: protein remaining read 45.8% and 47.4%.
It gave 46.9% and 47% for protein remaining (CRBN/Zinc finger protein Helios; HiBiT; HEK293; 111.1 nM, 1 h).

Block 2
Compound: CCCCC[C@@H]1CC(=O)N[C@@H](C(C)C)C(=O)N[C@H](CCC(=O)O)C(=O)N[C@@H](CCCNC(=N)N)C(=O)NCC(=O)N2CCC[C@H]2C(=O)N[C@@H](CC(C)C)C(=O)N[C@H](CCC(N)=O)C(=O)N[C@@H](CCC(=O)O)C(=O)N[C@H](Cc2ccc(O)cc2)C(=O)N[C@H](Cc2c[nH]c3ccccc23)C(=O)NCCCC(=O)O1
Organism: Staphylococcus aureus
Strain: USA300
The MIC was 4 µg/mL (≈ 2.69 µM) (added: ubiquinone 16 µg/mL).
It gave 32 µg/mL (≈ 21.5 µM) for MIC (added: menaquinone 4 µg/mL).
The MIC was 4 µg/mL (≈ 2.69 µM) (added: ubiquinone 4 µg/mL).
added: menaquinone 0 µg/mL — MIC: 4 µg/mL (≈ 2.69 µM).
It gave 16 µg/mL (≈ 10.8 µM) for MIC (added: menaquinone 1 µg/mL).
For added: menaquinone 64 µg/mL: MIC read greater than 64 µg/mL.
The MIC was 64 µg/mL (≈ 43.1 µM) (added: menaquinone 8 µg/mL).
It gave greater than 64 µg/mL for MIC (added: menaquinone 32 µg/mL).

Other studies, line by line
The specific binding of N=C(N)NCCCCCCN1CCC23c4c5ccc(O)c4OC2c2nc4ccccc4cc2CC3(O)C1C5 (stereo not shown) is reported as 102% and 125% and 124% (Mu-type opioid receptor (OPRM1, Homo sapiens, UniProt P35372); competitor, radioligand binding; 1 pM).
CCCNC(=O)COc1ccc(Br)c(C)c1 — result for “remaining transport activity”: 0.839 (Sodium-dependent neutral amino acid transporter B(0)AT1 (SLC6A19, Homo sapiens, UniProt Q695T7); inhibitor, L-[14C]leucine uptake; CHO-BC cells; 0.01 µM, 6 min, 37 °C, unit not given, added: GPNA 3 mM, JPH203 3 µM; reference: uninhibited cells).
NC(=O)NCCCCCCN1CCC23c4c5ccc(O)c4OC2c2nc4ccccc4cc2CC3(O)C1C5 (stereo not shown) has an Emax of 54 ± 3% (Delta-type opioid receptor, with Gi1 (OPRD1, Homo sapiens, UniProt P41143); human cells).

A few entries again (block 1):
The protein remaining was 39% and 35% and 32% and 33% (Ikzf2/Crbn I391V; Crbn I391V mouse, spleen; 10 mg/kg, 24 h).
CRBN/Zinc finger protein Helios; HiBiT; HEK293; 0.01694 nM, 0.5 h — protein remaining: 93.2% and 93.1%.
CRBN/Zinc finger protein Helios; HiBiT; HEK293; 0.05081 nM — protein remaining: 97.3% and 92.7%.
